# Measurements collected from several papers.
# Each numbered part is a random draw from the data of one study; scales do not carry over between parts. Changes are numbered by the printed parent chain.

# Sample 1
# Target: Histone acetyltransferase KAT6A, both winged helices, GST fusion (KAT6A, Homo sapiens, UniProt Q92794, residues 1-181)
# Technique: protein binding microarray
# Molecule type: double-stranded DNA, one strand shown
# Medium: in vitro
# Tested at: not given
# Setting: 8-mer, flanks averaged, mean of 2 arrays, mostly near background
# Relative to: not given
# Direction: higher = stronger binding
# Residues (chain): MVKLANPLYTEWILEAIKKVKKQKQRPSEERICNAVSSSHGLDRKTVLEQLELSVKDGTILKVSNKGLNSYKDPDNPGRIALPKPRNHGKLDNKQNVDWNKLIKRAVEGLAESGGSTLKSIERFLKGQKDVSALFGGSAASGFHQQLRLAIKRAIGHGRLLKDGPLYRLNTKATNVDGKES
Oligonucleotide,E-score
TGGCAGAA,-0.123
AGAGGACC,-0.0865
AAACCTCA,-0.0597
CTAGCGAG,0.0242
ATGGATGG,-0.142
GGCCCTAC,-0.0901
CTCGGAAG,0.0634
AGAATGCG,0.12
CAATCATC,-0.175
CCCAGAGG,-0.153
CAATCGCC,0.0984
GCTCGCGA,0.22
AAGTATAC,-0.0271
ACTAGCCT,-0.195
ATCATGGG,-0.169
TATCGTGA,0.00476

# Sample 2
# Target: Prothrombin, mature alpha-thrombin (F2, Homo sapiens, UniProt P00734)
# Technique: aptamer microarray, sandwich
# Molecule type: DNA with 2'F-ANA
# Medium: in vitro
# Tested at: 200 nM
# Setting: whole 15-mer aptamer, many near background
# Added: Cy3 exosite-II aptamer, 400 nM
# Direction: higher = stronger binding
# Oligonucleotide: GGTTGGTGTGGTTGG
Modification,mean fluorescence intensity [a.u.]
2'F-ANA at 1 2 3 4 5 6 7 9 11 12 15,80.6
2'F-ANA at 1 3 4 6 9 10 13 14 15,53.6
2'F-ANA at 1 6 9 11 14,50.1
2'F-ANA at 3 4 5 7 8 9 12,262
2'F-ANA at 4 6 10 12 13 15,103
2'F-ANA at 1 5 9 10 11 12 13,53
2'F-ANA at 1 4 5 6 8 9 10 14,48.1
2'F-ANA at 1 2 4 5 7 9 12,105
2'F-ANA at 2 3 5 6 7 8 11 12 14 15,57.1
2'F-ANA at 1 4 5 6 7 9 14 15,67.5
2'F-ANA at 3 4 5 6 7 11 13 14,59.1
2'F-ANA at 3 5 8 9 10 11 13 15,56.4
2'F-ANA at 1 2 3 4 5 6 7 8 10 11 13 14,48.7
2'F-ANA at 2 6 7 10 11 12 13 14,87.8
2'F-ANA at 3 10 12 15,703
2'F-ANA at 1 4 6 7 10 12 15,55.7
2'F-ANA at 4 5 6 8 9 10 13 15,45.7
2'F-ANA at 2 5 8 10 11 12 14 15,49.1
2'F-ANA at 1 5 6 8 9 10 12 13 14,45
2'F-ANA at 1 4 5 6 9 12,105
2'F-ANA at 2 5 7 9 13,52.2
2'F-ANA at 2 5 9 11 12 14 15,47.5

# Sample 3
# Target: CCNE1, cyclin fold, Cln2 fusion (human)
# Technique: yeast growth competition, sequencing
# Medium: yeast
# Setting: weak parent motif
# Relative to: not given
# Direction: higher = stronger binding
# Starting sequence: PKN2 docking peptide (human); VSAVQKLDFSDTM
Variant,normalised enrichment score
S2E,0.14
V4I,0.34
D11K,0.281
S10Y,1.1
F9W,0.0649
L7H,0.366
S10G,0.709
A3Q,0.318
D8Y,0.868
K6Q,0.473
D8C,0.433
V4Q,-0.128
A3E,-0.061
M13S,0.716

# Sample 4
# Target: ABI1, truncated, D143A, DHFR fusion (Arabidopsis thaliana)
# Technique: DHFR PCA, deep sequencing
# Medium: yeast
# Setting: methotrexate growth selection, single substitutions
# Added: (+)-ABA 0.0091 µM
# Relative to: wild-type fitted maximum
# Direction: higher = stronger binding
# Starting sequence: PYL1, truncated, DHFR fusion (Arabidopsis thaliana); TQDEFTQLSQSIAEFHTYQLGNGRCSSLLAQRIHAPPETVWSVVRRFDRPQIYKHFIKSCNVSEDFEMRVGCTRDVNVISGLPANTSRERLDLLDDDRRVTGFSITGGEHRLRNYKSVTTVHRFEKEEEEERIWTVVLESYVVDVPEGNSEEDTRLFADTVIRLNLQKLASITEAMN; partner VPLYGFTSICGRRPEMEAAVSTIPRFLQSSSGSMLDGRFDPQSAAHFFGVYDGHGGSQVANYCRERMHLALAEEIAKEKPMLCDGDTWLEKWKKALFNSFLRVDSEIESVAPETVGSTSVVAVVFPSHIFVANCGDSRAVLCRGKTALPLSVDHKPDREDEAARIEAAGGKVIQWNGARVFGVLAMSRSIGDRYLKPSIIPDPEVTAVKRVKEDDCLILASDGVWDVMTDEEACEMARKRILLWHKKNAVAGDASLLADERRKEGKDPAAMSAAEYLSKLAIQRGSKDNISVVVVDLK
Variant,relative binding score
R132K,50.6%
F56D,0.976%
E14S,2.33%
E139S,4.9%
K126T,56.2%
S87G,1.32%
A158V,54.9%
E174G,-5.57%
R32L,36%
H16C,0.18%
N114T,-0.388%
R90H,-5.25%
Y18S,1.91%
E67W,-4.67%
V70C,-4.76%
L93N,-3.56%

# A few entries again (sample 3):
Variant,normalised enrichment score
V4I,0.34
D11K,0.281
S10Y,1.1
F9W,0.0649
L7H,0.366
S10G,0.709
A3Q,0.318
D8Y,0.868
